Measured values of several laboratories.
Each numbered part is a random draw from the data of one study; scales do not carry over between parts.
Sequence of UniProt P10721 (whole entry, unmodified, looked up): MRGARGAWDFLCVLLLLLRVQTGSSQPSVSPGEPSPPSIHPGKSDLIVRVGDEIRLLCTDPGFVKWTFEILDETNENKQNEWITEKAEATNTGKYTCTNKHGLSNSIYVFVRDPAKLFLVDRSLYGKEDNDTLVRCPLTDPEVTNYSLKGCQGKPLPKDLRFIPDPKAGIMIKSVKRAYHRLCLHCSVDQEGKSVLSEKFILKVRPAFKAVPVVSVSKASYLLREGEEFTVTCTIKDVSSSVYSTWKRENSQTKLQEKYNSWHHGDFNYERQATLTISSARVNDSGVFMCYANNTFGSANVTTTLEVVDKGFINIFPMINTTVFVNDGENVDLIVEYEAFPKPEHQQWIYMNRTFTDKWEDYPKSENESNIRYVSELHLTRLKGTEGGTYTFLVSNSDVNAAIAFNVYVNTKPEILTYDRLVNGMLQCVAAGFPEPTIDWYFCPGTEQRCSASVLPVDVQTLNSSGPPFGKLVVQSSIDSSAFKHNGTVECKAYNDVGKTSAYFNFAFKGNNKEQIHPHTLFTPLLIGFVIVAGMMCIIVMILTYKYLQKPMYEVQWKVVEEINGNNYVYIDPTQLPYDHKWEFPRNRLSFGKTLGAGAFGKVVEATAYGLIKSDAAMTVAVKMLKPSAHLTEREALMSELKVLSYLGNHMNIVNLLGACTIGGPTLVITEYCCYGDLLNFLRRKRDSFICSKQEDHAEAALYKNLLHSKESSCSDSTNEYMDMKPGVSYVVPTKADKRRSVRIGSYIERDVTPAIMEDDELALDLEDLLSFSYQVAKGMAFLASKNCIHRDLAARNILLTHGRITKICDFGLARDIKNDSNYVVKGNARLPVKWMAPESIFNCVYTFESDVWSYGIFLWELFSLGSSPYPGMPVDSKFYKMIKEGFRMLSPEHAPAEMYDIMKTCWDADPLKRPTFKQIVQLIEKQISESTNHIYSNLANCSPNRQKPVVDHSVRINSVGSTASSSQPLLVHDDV
Sequence of UniProt P78362 (whole entry, looked up): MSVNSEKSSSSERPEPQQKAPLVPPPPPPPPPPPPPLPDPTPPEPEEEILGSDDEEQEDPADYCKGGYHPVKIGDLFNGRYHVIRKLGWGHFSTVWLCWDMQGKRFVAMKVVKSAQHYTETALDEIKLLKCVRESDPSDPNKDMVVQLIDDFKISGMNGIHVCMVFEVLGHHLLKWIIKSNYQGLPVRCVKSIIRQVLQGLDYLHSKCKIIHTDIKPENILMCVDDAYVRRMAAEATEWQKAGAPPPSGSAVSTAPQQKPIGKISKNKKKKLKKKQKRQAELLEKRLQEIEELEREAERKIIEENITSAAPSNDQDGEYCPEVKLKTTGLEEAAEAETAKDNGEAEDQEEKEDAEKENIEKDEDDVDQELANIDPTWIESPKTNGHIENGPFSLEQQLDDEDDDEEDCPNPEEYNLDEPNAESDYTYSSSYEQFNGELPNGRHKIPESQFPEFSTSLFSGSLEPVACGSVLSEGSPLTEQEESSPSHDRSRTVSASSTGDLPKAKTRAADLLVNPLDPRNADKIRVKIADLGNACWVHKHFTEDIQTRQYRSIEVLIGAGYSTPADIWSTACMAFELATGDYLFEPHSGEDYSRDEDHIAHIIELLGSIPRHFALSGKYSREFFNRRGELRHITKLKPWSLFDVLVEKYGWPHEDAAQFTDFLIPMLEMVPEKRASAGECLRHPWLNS
Sequence of UniProt P07947 (whole entry, looked up): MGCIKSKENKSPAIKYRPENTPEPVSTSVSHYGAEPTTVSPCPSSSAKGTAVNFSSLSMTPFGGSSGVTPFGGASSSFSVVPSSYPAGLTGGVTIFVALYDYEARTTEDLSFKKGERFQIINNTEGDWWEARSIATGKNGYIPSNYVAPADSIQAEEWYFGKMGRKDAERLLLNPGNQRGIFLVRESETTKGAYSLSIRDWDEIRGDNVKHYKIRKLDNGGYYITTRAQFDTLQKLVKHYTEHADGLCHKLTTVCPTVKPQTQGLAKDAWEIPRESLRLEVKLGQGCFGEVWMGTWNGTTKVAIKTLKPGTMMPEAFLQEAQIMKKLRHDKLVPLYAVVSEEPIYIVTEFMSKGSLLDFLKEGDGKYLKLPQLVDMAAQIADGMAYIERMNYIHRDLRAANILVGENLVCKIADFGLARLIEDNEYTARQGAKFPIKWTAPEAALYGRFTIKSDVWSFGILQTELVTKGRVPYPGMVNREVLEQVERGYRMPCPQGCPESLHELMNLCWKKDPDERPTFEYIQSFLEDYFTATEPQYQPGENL
Sequence of UniProt Q13464 (whole entry, looked up): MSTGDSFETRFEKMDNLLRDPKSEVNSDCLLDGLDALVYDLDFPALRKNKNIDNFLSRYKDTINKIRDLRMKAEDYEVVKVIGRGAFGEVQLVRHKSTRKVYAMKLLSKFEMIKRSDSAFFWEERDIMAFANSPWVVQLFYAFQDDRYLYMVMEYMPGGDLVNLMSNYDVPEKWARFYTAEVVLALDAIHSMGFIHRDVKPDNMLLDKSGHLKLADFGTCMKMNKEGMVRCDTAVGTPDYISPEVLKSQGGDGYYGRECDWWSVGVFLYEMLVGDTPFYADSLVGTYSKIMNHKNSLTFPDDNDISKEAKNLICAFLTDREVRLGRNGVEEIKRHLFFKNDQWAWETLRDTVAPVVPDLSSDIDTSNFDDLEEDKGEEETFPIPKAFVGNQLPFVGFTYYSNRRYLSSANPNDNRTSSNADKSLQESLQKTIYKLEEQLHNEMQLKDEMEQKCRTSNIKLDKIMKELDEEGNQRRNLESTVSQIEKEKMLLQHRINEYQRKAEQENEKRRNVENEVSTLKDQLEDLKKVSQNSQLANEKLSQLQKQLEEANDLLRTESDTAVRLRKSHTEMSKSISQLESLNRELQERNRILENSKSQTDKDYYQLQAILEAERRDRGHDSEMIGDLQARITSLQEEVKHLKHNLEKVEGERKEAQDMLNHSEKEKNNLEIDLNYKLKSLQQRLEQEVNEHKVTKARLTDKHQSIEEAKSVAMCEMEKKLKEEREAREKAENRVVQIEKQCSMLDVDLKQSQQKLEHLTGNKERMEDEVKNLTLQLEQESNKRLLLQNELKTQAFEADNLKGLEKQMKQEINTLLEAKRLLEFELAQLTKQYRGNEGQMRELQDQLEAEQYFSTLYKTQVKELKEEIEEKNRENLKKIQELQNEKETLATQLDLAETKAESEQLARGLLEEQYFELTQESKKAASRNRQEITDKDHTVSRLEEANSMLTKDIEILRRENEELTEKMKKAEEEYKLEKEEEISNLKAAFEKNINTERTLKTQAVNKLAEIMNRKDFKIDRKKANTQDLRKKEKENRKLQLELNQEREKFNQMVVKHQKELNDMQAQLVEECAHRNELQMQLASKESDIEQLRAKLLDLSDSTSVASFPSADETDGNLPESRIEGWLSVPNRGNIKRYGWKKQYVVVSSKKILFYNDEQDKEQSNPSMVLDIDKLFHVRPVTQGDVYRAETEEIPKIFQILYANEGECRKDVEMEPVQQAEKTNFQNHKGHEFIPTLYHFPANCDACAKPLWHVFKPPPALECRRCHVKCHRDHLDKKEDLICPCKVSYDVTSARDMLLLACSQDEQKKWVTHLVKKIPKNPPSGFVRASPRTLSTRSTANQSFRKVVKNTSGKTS
Sequence of UniProt P31749 (whole entry, looked up): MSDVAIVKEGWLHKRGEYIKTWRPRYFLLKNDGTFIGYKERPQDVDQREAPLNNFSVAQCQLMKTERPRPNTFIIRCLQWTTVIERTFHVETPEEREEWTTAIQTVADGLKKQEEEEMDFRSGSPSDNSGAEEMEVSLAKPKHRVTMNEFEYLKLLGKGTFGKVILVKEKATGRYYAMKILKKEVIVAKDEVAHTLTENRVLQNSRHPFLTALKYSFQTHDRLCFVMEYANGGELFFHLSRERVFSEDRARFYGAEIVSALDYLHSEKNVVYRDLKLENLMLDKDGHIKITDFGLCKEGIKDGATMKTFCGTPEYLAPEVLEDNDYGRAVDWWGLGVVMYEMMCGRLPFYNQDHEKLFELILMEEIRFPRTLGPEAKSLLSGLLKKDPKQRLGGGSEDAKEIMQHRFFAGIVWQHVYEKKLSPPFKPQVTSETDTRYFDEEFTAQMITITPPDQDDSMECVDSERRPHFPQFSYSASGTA

Block 1
Target: Serine/threonine-protein kinase 10 (STK10, Homo sapiens, UniProt O94804)
Sequence of UniProt O94804 (whole entry, looked up): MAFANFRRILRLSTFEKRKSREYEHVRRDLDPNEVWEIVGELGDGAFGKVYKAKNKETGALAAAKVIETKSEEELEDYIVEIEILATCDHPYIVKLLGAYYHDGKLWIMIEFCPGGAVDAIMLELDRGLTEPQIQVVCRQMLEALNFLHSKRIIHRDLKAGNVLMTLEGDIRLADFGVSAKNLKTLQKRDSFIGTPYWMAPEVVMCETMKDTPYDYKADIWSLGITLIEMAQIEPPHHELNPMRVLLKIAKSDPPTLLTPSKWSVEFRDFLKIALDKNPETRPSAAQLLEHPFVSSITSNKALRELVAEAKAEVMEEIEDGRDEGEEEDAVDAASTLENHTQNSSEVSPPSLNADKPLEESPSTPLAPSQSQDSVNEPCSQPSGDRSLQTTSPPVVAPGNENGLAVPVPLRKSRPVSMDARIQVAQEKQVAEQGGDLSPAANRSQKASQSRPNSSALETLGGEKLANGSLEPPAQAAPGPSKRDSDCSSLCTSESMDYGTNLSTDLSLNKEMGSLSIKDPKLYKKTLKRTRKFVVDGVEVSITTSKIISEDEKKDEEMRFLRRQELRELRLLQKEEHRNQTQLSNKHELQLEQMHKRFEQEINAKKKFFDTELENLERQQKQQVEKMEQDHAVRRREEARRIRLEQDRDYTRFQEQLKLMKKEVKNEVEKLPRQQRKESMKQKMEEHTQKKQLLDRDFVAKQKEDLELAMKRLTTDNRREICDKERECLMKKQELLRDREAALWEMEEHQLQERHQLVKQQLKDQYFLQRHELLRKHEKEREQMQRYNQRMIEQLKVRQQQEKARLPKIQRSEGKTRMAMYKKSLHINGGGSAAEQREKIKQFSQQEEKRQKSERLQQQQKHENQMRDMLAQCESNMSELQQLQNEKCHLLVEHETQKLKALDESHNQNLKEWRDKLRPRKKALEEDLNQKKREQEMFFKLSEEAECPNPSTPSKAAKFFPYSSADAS
Read-out: enzyme activity
Action: inhibitor
Concentration: 0.5 µM
Baseline: control
O=S(=O)(c1cccc2cnccc12)N1CCCNCC1 gave a remaining activity of 103%.
CO[C@H]1C[C@@H]2CC[C@@H](C)[C@@](O)(O2)C(=O)C(=O)N2CCCC[C@H]2C(=O)O[C@H]([C@H](C)C[C@@H]2CC[C@@H](O)[C@H](OC)C2)CC(=O)[C@H](C)/C=C(\C)[C@@H](O)[C@@H](OC)C(=O)[C@H](C)C[C@H](C)/C=C/C=C/C=C/1C gave a remaining activity of 97.7%.
For Nc1ccc2ncnc(NCCc3ccc(Oc4ccccc4)cc3)c2c1, the remaining activity was 90.8%.
Cn1sc(=O)n(Cc2ccccc2)c1=O has a remaining activity of 98.1%.
For COc1cc2ncnc(Nc3ccc(F)c(Cl)c3)c2cc1OCCCN1CCOCC1, the remaining activity was 38.6%.

Block 2
Target: TAR DNA-binding protein 43, full length, His tag (TARDBP, Homo sapiens, UniProt Q13148, residues 1-414)
Technique: RNA Bind-n-Seq
Molecule type: RNA
Sample: in vitro
Concentration: 20 nM
Notes: 6-mer, flanks averaged, single round
Added: 150 mM KCl
Baseline: input library
Direction: higher = stronger binding
For `AGGGAA`, “6-mer enrichment (R)” read 2.25.
For `UUCAAC`, “6-mer enrichment (R)” read 0.548.
`CACCAU` — result for “6-mer enrichment (R)”: 0.683.
`GACAAG` — result for “6-mer enrichment (R)”: 1.1.
Under “6-mer enrichment (R)”, `ACUGGA` is recorded as 0.84.
`CCCGCC`: “6-mer enrichment (R)” 0.642.
Under “6-mer enrichment (R)”, `AUGAAG` is recorded as 0.975.
`CCACGC`: “6-mer enrichment (R)” 0.702.

Block 3
Target: Phosphate system positive regulatory protein PHO4, full length, GST-tagged (PHO4, Saccharomyces cerevisiae, UniProt P07270, residues 1-312)
Technique: competition protein-binding microarray
Molecule type: double-stranded DNA, one strand shown
Sample: in vitro
Concentration: 2 µM
Notes: whole 60-bp probe, lowest competitor level
Added: Cbf1 competitor, 0.05 µM
Direction: higher = stronger binding
Constant ends, left off below: … GTCTTGATTCGCTTGACGCTGCTG
Construct (chain): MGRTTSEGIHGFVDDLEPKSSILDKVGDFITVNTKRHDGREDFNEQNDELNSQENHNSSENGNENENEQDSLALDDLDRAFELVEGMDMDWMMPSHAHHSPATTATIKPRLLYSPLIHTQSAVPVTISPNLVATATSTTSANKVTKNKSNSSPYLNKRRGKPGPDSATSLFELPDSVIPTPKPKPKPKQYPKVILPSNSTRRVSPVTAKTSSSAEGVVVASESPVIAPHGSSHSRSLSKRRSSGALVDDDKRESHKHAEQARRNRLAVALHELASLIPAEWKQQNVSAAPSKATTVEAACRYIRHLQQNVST
For `TCGATTATGGTATTTCTCGTGATGGGCCGGAAAGTT`, the fluorescence intensity was 4850 a.u.
With `ATTATTTCTATCGGCCACGTGTTGATTGGGCTTAAT` the fluorescence intensity was 20300 a.u.
`TATATCTTTCTATTTCACGTTCACCTTCACCTCTGC` has a fluorescence intensity of 7220 a.u.
The fluorescence intensity of `ATCAGGTTCTATCCAATACAAAAAGGAGTATGAAGA` is reported as 3110 a.u.
`CGGCAAGAAAAAGATCGTGTGTCTCTAGAGCAGCTT` gave a fluorescence intensity of 5900 a.u.
For `GTCTTGTCTCATTCACACGTGTTTTTCCCCACTTCA`, the fluorescence intensity was 16700 a.u.
`GCTTAACCGAATCCACACGGGTCTGCCATCTTCCAT` gave a fluorescence intensity of 7910 a.u.
`TCCAGTACGGACTGGCACGTGTGTTCCCACCAGGGT` gave a fluorescence intensity of 19600 a.u.

Block 4
Compound: NS(=O)(=O)c1cc(NC(=O)Cc2ccccc2)ccc1Oc1cccc(Cl)c1
Read-out: cell-free assay
Technique: competition with immobilised ligand
Concentration: 1 µM
KIT (Homo sapiens, UniProt P10721, A829P) — remaining binding: 74%.
For MAP4K5 (Homo sapiens, UniProt Q9Y4K4): remaining binding read 72%.
The remaining binding was 97% (Tyrosine-protein kinase ABL1, non-phosphorylated (ABL1, Homo sapiens, UniProt P00519, H396P)).
The remaining binding was 88% (SRPK2 (Homo sapiens, UniProt P78362)).
AKT1 (Homo sapiens, UniProt P31749) — remaining binding: 100%.
For YES1 (Homo sapiens, UniProt P07947): remaining binding read 86%.
SNRK (Homo sapiens, UniProt Q9NRH2) — remaining binding: 100%.
The remaining binding was 91% (PAK2 (Homo sapiens, UniProt Q13177)).
For MAP3K11 (Homo sapiens, UniProt Q16584): remaining binding read 78%.
The remaining binding was 95% (DYRK1A (Homo sapiens, UniProt Q13627)).
It gave 80% for remaining binding (HIPK1 (Homo sapiens, UniProt Q86Z02)).
For KIT (Homo sapiens, UniProt P10721, D816V): remaining binding read 77%.
ROCK1 (Homo sapiens, UniProt Q13464) — remaining binding: 88%.

Excerpt of the above (block 2):
Under “6-mer enrichment (R)”, `AUGAAG` is recorded as 0.975.
For `UUCAAC`, “6-mer enrichment (R)” read 0.548.
`GACAAG` — result for “6-mer enrichment (R)”: 1.1.
